Assay results pooled from the literature.
Compare with care: the assays were run in different laboratories. ± marks the error that the study gave. Converted amounts (≈) assume the structure as drawn.

| Structure (SMILES) | target or system | test | test system | setting | how to read | quantity | result |
| --- | --- | --- | --- | --- | --- | --- | --- |
| CCCC(CCC)C(=O)NO | Lucilia cuprina | pupation | LS strain, larvae on impregnated cotton wool | 216 h | – | IC50 | > 1000 µg |
| O=C1NCC(Cc2ccccc2)N(CC2CCCN2CC(CC2CCCCC2)N2CC(Cc3ccc(O)cc3)N(CCc3ccccc3)C(=O)C2=O)C1=O (stereo not drawn) | WM 266-4 | western blot, measured: DDX1, hnRNP H2, hnRNP A2/B1 | – | concentration not given | – | protein level | decreased |
| CC(=O)[O-].O.O.O.O.[Ni+2].[O-]c1ccc(Br)cc1C=NCCN1CCOCC1 | Chromobacterium violaceum | – | – | 20 µL of 100 µM per disc | – | inhibition zone diameter | 16 mm |
| O=C(NO)c1cccc(C(=O)NCCc2ccccc2)c1 | Lucilia cuprina | pupation | LS strain, larvae on impregnated cotton wool | 216 h | – | IC50 | > 1000 µg |
| COc1cc(CNC(=O)C[C@H](C)CCC=C(C)C)ccc1OCc1cn(-c2ccccc2)nn1 | SK-MEL-2 melanoma cells | SRB | – | 10 µM, 48 h | – | growth percent | 91.2% |
| O=C(NO)c1cccc2ccccc12 | Lucilia cuprina | pupation | LS strain, larvae on impregnated cotton wool | 216 h | – | IC50 | > 1000 µg |
| COc1ccc(NC(=O)CCc2nc3cc(Cl)ccc3[nH]c2=O)cc1 | MCF7 | – | – | concentration not given | – | active caspase-3 level | 423 ± 11.2 pg/mL |
| O=C(NO)c1ccc(CC(=O)N(CCO)c2ccccc2)cc1 | Lucilia cuprina | pupation | LS strain, larvae on impregnated cotton wool | 216 h | – | IC50 | > 1000 µg |
| Oc1ccc2nc1CNCCNCCNC2 | – | potentiometric titration | – | 298 K, I 0.15 M NaCl, added: Cu2+ | – | log beta MHL | 29 |
| CC[C@H]1[C@@H](O)[C@@H]2[C@H](CC[C@]3(C)[C@@H]([C@H](C)CCOS(=O)(=O)[O-])CC[C@@H]23)[C@@]2(C)CC[C@@H](O)C[C@@H]12.[Na+] | – | EchoMRI | ob/ob NASH mouse model | oral, 10 mg/kg once daily, before treatment, baseline of 8 week study | reference: body weight | whole-body fat mass | 39.4 ± 0.6% |
| O=C(CCCCCCCC(=O)NO)NO | Lucilia cuprina | pupation | LS strain, larvae on impregnated cotton wool | 216 h | – | IC50 | > 1000 µg |
| Brc1ccc(-c2c[nH]c(-c3ccccn3)n2)cc1 | Schistosoma mansoni | – | worm couples | 10 µM | – | reduction in egg number | 50% |
| CCCCC/C=C/C(=O)CCc1ccc(O)c(OC)c1 | mAb 5-3H1 | antibody binding, indirect competitive ELISA | – | added: coating antigen 4-OVA | – | IC50 | 0.128 µg/mL (≈ 0.463 µM) |
| O=C1CCN(Cc2ccccc2)CC1C(C[N+](=O)[O-])c1ccccc1 (stereo not drawn) | – | tail immersion test | BALB/c mice | ip, 50 mg/kg, 0.25 h | – | tail flick response | 21.6% |
| CNc1cc(C(=O)Nc2ccc(Cl)cc2)ccc1OC | duck hepatitis B virus | viral replication, qPCR | DHBV-infected Pekin ducklings | oral, 100 mg/kg, day 14 | – | serum DHBV DNA | inhibited |
| COc1ccc([C@@H]2CC(=O)c3c(O)cc(O[C@@H]4O[C@H](CO[C@@H]5O[C@@H](C)[C@H](O)[C@@H](O)[C@H]5O)[C@@H](O)[C@H](O)[C@H]4O)cc3O2)cc1O | A549 | cell growth or viability, MTS | – | 150 µg/mL, 48 h | – | viability | 47.2% |
| CC(C)(C)OC(=O)N[C@@H](CCCCCC(=O)NO)C(=O)NC1CCCC1 | Lucilia cuprina | larval weight gain | LS strain, larvae on impregnated cotton wool | 24 h | – | IC50 | 101 µg |
| COc1cc(CCC(C)=O)ccc1O | mAb 5-3H1 | antibody binding, indirect competitive ELISA | – | added: coating antigen 1-OVA | – | IC50 | > 4 µg/mL |
| CN(C)c1ccc(C(=O)N[C@@H](CSCCCC(=O)NO)C(=O)Nc2ccc(-c3ccccc3)cc2)cc1 | Lucilia cuprina | larval weight gain | LS strain, larvae on impregnated cotton wool | 24 h | – | IC50 | 380 µg |
| COc1cc(C(=O)c2[nH]c(N)nc2-c2cccs2)cc(OC)c1OC | tubulin goat | taxol-induced tubulin polymerization | – | 60 µM, added: taxol 10 µM | – | inhibition | 40 ± 8% |
| COc1cc(CNC(=O)C[C@H](C)CCC=C(C)C)ccc1OCc1cn(-c2ccccc2F)nn1 | U-251 CNS cancer cells | SRB | – | 10 µM, 48 h | – | growth percent | 61.6% |

Excerpt of the above:
| Structure (SMILES) | target or system | test | test system | setting | how to read | quantity | result |
| --- | --- | --- | --- | --- | --- | --- | --- |
| CCCCC/C=C/C(=O)CCc1ccc(O)c(OC)c1 | mAb 5-3H1 | antibody binding, indirect competitive ELISA | – | added: coating antigen 4-OVA | – | IC50 | 0.128 µg/mL (≈ 0.463 µM) |
